Published values pooled from the literature.
± marks the error that the study gave.

Compound = O=C([O-])CN1CCN(CC(=O)[O-])CCN(CC(=O)NCCc2ccc3c(c2)C2C=CCC2C(c2cc4c(cc2Br)OCO4)N3)CCN(CC(=O)[O-])CC1.[111In+3] (centres unmarked); test system = mouse, Hec50 endometrial tumour, liver; setting = 0.5 h post injection; tissue uptake = 14.3 ± 1.5 %ID/g
Compound = CC(C)[C@H](NC(=O)[C@@H]1CCCN1C(=O)[C@H](CCCNC(=N)N)NC(=O)[C@H](CS)NC(=O)[C@H](Cc1c[nH]c2ccccc12)NC(=O)[C@H](CCCNC(=N)N)NC(=O)[C@@H](Cc1ccccc1)NC(=O)[C@H](Cc1c[nH]cn1)NC(=O)[C@H](CCC(=O)O)NC(=O)[C@H](CS)NC(=O)[C@H](CS)NC(=O)[C@@H]1CC(=O)N[C@@H](CCCNC(=N)N)C(=O)NCC(=O)N[C@@H](CC(=O)O)C(=O)N[C@H](Cc2ccc(O)cc2)C(=O)N1)C(N)=O [technetium-99m labelled]; test system = C57 mouse, female, B16/F1 melanoma, heart; setting = intravenous, 0.037 MBq, 2 h; tissue uptake = 0.7 ± 0.15 %ID/g
Compound = CCCC[C@H](NC(=O)CNC(=O)CNC(=O)CN1CCN(CC(=O)O)CCN(CC(=O)O)CC1)C(=O)N[C@H]1CC(=O)NCCCC[C@@H](C(N)=O)NC(=O)[C@H](Cc2c[nH]c3ccccc23)NC(=O)[C@H](CCCNC(=N)N)NC(=O)[C@@H](Cc2ccccc2)NC(=O)[C@H](Cc2c[nH]cn2)NC1=O [copper-64 labelled]; test system = female C57 mouse, B16/F1 melanoma, brain; setting = intravenous, 0.037 MBq, 2 h; tissue uptake = 0.04 ± 0.02 %ID/g
Compound = CCCC[C@H](NC(=O)CNC(=O)CNC(=O)CN1CCN(CC(=O)O)CCN(CC(=O)O)CCN(CC(=O)O)CC1)C(=O)N[C@H]1CC(=O)NCCCC[C@@H](C(N)=O)NC(=O)[C@H](Cc2c[nH]c3ccccc23)NC(=O)[C@H](CCCNC(=N)N)NC(=O)[C@@H](Cc2ccccc2)NC(=O)[C@H](Cc2c[nH]cn2)NC1=O [lead-203 labelled]; test system = C57 mouse, pancreas; setting = intravenous, 0.056 MBq, 2 h; tissue uptake = 0.16 ± 0.12 %ID/g
Compound = CC(C)[C@H](NC(=O)[C@@H]1CCCN1C(=O)[C@H](CCCNC(=N)N)NC(=O)[C@H](CS)NC(=O)[C@H](Cc1c[nH]c2ccccc12)NC(=O)[C@H](CCCNC(=N)N)NC(=O)[C@@H](Cc1ccccc1)NC(=O)[C@H](Cc1c[nH]cn1)NC(=O)[C@H](CCC(=O)O)NC(=O)[C@H](CS)NC(=O)[C@H](CS)NC(=O)CNC(=O)[C@@H]1CC(=O)N[C@@H](CCCNC(=N)N)C(=O)NCC(=O)N[C@@H](CC(=O)O)C(=O)N[C@H](Cc2ccc(O)cc2)C(=O)N1)C(N)=O [technetium-99m labelled]; test system = C57 mouse, female, B16/F1 melanoma, bone; setting = intravenous, 0.037 MBq, 2 h; tissue uptake = 0.87 ± 0.15 %ID/g
Compound = CCCC[C@H](NC(=O)CNC(=O)CNC(=O)CN1CCN(CC(=O)O)CCN(CC(=O)O)CCN(CC(=O)O)CC1)C(=O)N[C@H]1CC(=O)NCCCC[C@@H](C(N)=O)NC(=O)[C@H](Cc2c[nH]c3ccccc23)NC(=O)[C@H](CCCNC(=N)N)NC(=O)[C@@H](Cc2ccccc2)NC(=O)[C@H](Cc2c[nH]cn2)NC1=O [copper-64 labelled]; test system = C57 mouse female B16/F1 melanoma, intestines; setting = intravenous, 0.037 MBq, 0.5 h; tissue uptake = 7.19 ± 0.35 %ID
Compound = CN1C(=O)[C@@H](Cc2ccc(O)c(I)c2)NC(=O)CNC(=O)[C@H](Cc2ccc3ccccc3c2)NC(=O)[C@H](CCCNC(=N)N)NC(=O)[C@H]1CCCNC(=O)c1ccc(CNC(=O)CN2CCN(CC(=O)O)CCN(CC(=O)O)CCN(CC(=O)O)CC2)cc1 [lutetium-177 labelled]; test system = female CB-17 SCID mouse, Daudi xenograft, heart; setting = intravenous, 6 h, CXCR4 blocking, with: AMD3100 2 mg/kg coinjected; tissue uptake = 0.17 ± 0.02 %ID/g
Compound = CN(C)c1ccc(-c2nc3ccc(OCCCCCN4CCN5CCN(CC4)CC(=O)[O][Al]([18F])[O]C(=O)C5)cc3s2)cc1; test system = ICR mouse, muscle; setting = intravenous, 30 min; tissue uptake = 0.8 ± 0.09 %ID/g

Excerpt of the above:
Compound = O=C([O-])CN1CCN(CC(=O)[O-])CCN(CC(=O)NCCc2ccc3c(c2)C2C=CCC2C(c2cc4c(cc2Br)OCO4)N3)CCN(CC(=O)[O-])CC1.[111In+3] (centres unmarked); test system = mouse, Hec50 endometrial tumour, liver; setting = 0.5 h post injection; tissue uptake = 14.3 ± 1.5 %ID/g
